Published values from different studies.
Compare with care: the assays were run in different laboratories. Several values in a cell are separate wells, animals, samples, runs or records.
STK4: Serine/threonine-protein kinase 4 (STK4, Homo sapiens, UniProt Q13043)
Chain of UniProt Q13043 (whole entry, unmodified, looked up): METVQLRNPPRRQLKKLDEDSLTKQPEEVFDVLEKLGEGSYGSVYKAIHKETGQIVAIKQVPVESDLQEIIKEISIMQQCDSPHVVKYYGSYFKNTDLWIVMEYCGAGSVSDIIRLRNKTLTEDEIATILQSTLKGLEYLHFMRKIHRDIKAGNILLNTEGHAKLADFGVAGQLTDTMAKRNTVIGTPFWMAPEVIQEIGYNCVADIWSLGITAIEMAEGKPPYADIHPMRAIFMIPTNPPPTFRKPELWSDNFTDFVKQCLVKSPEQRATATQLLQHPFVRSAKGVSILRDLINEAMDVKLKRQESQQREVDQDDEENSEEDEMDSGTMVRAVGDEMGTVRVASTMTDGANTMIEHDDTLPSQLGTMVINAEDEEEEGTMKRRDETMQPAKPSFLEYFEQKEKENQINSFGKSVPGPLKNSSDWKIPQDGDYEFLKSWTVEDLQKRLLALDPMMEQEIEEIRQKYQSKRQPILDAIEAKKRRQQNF
TDP1: Tyrosyl-DNA phosphodiesterase 1 (TDP1, Homo sapiens, UniProt Q9NUW8)
Chain of UniProt Q9NUW8 (whole entry, looked up): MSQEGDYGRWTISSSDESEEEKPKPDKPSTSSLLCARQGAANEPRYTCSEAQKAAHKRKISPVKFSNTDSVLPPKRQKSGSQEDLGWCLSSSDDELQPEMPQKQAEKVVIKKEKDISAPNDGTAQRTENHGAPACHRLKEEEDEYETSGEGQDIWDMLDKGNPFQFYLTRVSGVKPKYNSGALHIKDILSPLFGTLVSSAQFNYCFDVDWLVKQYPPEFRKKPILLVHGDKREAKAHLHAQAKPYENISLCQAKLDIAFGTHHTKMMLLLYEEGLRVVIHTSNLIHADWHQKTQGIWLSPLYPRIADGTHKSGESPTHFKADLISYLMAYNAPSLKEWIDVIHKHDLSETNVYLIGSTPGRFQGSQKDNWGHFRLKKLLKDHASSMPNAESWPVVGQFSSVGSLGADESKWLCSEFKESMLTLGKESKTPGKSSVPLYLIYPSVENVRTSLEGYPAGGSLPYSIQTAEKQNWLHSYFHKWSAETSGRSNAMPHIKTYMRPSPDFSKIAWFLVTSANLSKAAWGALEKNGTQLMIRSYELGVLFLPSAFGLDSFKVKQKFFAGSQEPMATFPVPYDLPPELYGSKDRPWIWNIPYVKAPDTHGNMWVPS

SMILES	target	test	test system	conditions	scale	quantity	value
O=C(Cc1ccc(OCc2ccccc2)cc1)NC1(C(=O)O)CCN(C(=O)c2ccc(-c3cccc(Cl)c3)cc2)CC1	STK4	enzyme activity, inhibitor	–	10 µM	–	activity vs control	107%
Cc1cccc(O[C@H]2CCC[C@@H](C(C)CNCc3ccncc3)C2)c1 (relative stereo)	STK4	kinase activity, kinome panel screening	–	10 µM	–	inhibition	-7%
COc1ccc(Nc2nc(Cl)c(C=NOCc3ccc(-c4nc5cc(-c6ccccc6)ccn5c4Nc4ccc(C(=O)O)cc4)cc3)s2)cc1	TDP1	enzyme activity, inhibitor	–	100 µM, unpurified compound	–	inhibition	84.9%
Cc1cnc2nc1Nc1cccc(c1)COC/C=C/COCc1cc(ccc1OCCN1CCOCC1)N2	STK4	–	–	concentration not given, gene name MST1	–	percent of control	100%
CN1CC[C@@H](COc2cnc(C#N)cc2-c2ccn3nc(NC(=O)C4CC4)cc3c2)C1	STK4	enzyme activity, inhibitor	–	1 µM	–	inhibition	11%
CC(C)=CC1OC(C)(C)C2C=C3C(=O)C(Cl)=CC(O)C3C3C(O)C4OC4C(=O)C132 (stereo not drawn)	STK4	cell-free assay, competition with immobilised ligand	–	10 µM	–	remaining binding	92%
Cc1ccc(C(=O)Nc2ccc(CN3CCN(C)CC3)c(C(F)(F)F)c2)cc1C#Cc1cnc2cccnn12	STK4	target engagement, NanoBRET	human cells	–	–	upper asymptote	51.1
C=CC(=O)Nc1cccc(-c2cnc3[nH]cc(C(=O)NC(C)(C)C)c3n2)c1	STK4	kinase activity	–	0.1 µM	–	inhibition	79% and 80%
COc1cc(Nc2nc(C)cc(-c3cnn4nc(OC)ccc34)n2)cc(C(F)(F)F)c1	STK4	inhibitor	–	1 µM, MST1	relative to: control	remaining activity	85%
O=C=[N][Ru-4]123([n]4c5ccc(O)cc5c5c6c(c7cc(F)c[n+]1c7c54)C(=O)NC6=O)[S+]1CC[S+]2CC[S+]3CC1 (stereo not drawn)	STK4	enzyme activity	–	100 nM, human enzyme, with: 10 µM ATP	relative to: untreated	remaining activity	78%
NC(=O)[C@@H](O)C[C@H]1CCc2sc3ncnc(O[C@H]4CC[C@H](N5CCOCC5)CC4)c3c21	STK4	enzyme activity, inhibitor	–	10 µM	–	inhibition	21%
Cc1ccc(-c2c(/C=C(\C#N)C(=O)NC(C)C)n(CCCO)c3ncnc(N)c23)cc1	STK4	binding, competition with immobilised ligand	–	1 µM	–	remaining binding	77%
CNC(=O)C[C@H](Cc1ccc(C#N)cc1)NC(=O)c1cc(-c2ccc(CN[C@H](C)c3ccc(C)cc3)o2)ccc1Cl	STK4	enzyme activity, inhibitor	–	1 µM	–	activity vs control	93%
Cc1cc(C=NOCc2ccc3nc(-c4ccccc4)c(Nc4ccc(C(=O)O)cc4)n3c2)c(C)n1-c1ccc(N2CCCC2)c([N+](=O)[O-])c1 (mixture of isomers)	TDP1	enzyme activity, inhibitor	–	100 µM, unpurified compound	–	inhibition	0.7%
COc1ccc(NC(=O)Nc2ccc3c(c2)C(=O)N(C(C)CO)CC(C)C(CN(C)Cc2ccc4c(c2)OCO4)O3)cc1 (stereo not drawn)	STK4	kinase activity, KinaseProfiler	–	0.03 µM, species human	relative to: control	remaining activity	87%
Nc1ncc2c(n1)-c1c([nH]c3ccc(C4=CCOCC4)cc13)CCC2	STK4	binding, competition with immobilised ligand	–	1 µM	–	remaining binding	100%
CCN1CCN(Cc2ccc(C(=O)Nc3ccc(C)c(NCc4cnc5[nH]ccc5c4OC)c3)cc2C(F)(F)F)CC1	STK4	binding, competition with immobilised ligand	–	1 µM	–	remaining binding	100%
COc1c(OCCCN2CCOCC2)ccc2c1N=C(NC(=O)c1cnc(N)nc1)N1CCN=C21	STK4	kinase activity, inhibitor	–	1 µM	relative to: untreated control	remaining activity	112%

Repeated from above:
SMILES	target	test	test system	conditions	scale	quantity	value
Nc1ncc2c(n1)-c1c([nH]c3ccc(C4=CCOCC4)cc13)CCC2	STK4	binding, competition with immobilised ligand	–	1 µM	–	remaining binding	100%
CCN1CCN(Cc2ccc(C(=O)Nc3ccc(C)c(NCc4cnc5[nH]ccc5c4OC)c3)cc2C(F)(F)F)CC1	STK4	binding, competition with immobilised ligand	–	1 µM	–	remaining binding	100%
